Measurements from different studies.
Numbers after ± are the reported error.
B1: EnvC 278-419 Y350A (Escherichia coli, UniProt P37690); chain STESEKSLMSRTGGLGAPRGQAFWPVRGPTLHRYGEQLQGELRWKGMVIGASEGTEVKAIADGRVILADWLQGAGLVVVVEHGKGDMSLYGYNQSALVSVGSQVRAGQPIALVGSSGGQGRPSLYFEIRRQGQAVNPQPWLGR
B2: Ric8b 1-483 E400A (Mus musculus, UniProt Q80XE1); chain MDEERALYIVRAGEAGAIERVLRDYSDKHRATFKFESADEDKRKKLCEGIFKVLVKEVPTTCQVSCLEVLRILSRDKKILVPVTTKENMQILLRLAKLHESDDSLEKVSEFPVIVESLKCLCNIVFNSQMAQQLSLELNLAAKLCNLLRKCKDRKFINDIKCFDLRLLFVLSLLHTDIRSQLRYELQGLPLLTQILESAFSIKWTDEYESAIDHNGPPLSPQETDCAIEALKALFNVTVDSWKVHKESDSHQFRVMAAVLRHCLLIVGPTEDKTEELHSNAVNLLSNVPVSCLDVLICPLTHEETAQEAATLDELPSDKTTEKDTALKNSTMVYNGMNMEAIHVLLNFMEKRIDKGSSYREGLTPVLSLLTECSRAHRNIRKFLKDQVLPPLRDVTNRPAVGSTVRNKLVRLMTHVDLGVKQIAAEFLFVLCKERVDSLLKYTGYGNAAGLLAARGLLAGGRGDNWYSEDEDTDTEEYKNAKP
B3: rpoD 530-613 (Escherichia coli, UniProt P00579); sequence looked up; chain LPLDSATTESLRAATHDVLAGLTAREAKVLRMRFGIDMNTDYTLEEVGKQFDVTRERIRQIEAKALRKLRHPSRSEVLRSFLDD
B4: UGT1A9 (Homo sapiens, UniProt O60656); chain GKLLVVPMDGSHWFTMRSVVEKLILRGHEVVVVMPEVSWQLGRSLNCTVKTYSTSYTLEDLDREFKAFAHAQWKAQVRSIYSLLMGSYNDIFDLFFSNCRSLFKDKKLVEYLKESSFDAVFLDPFDNCGLIVAKYFSLPSVVFARGILCHYLEEGAQCPAPLSYVPRILLGFSDAMTFKERVRNHIMHLEEHLLCHRFFKNALEIASEILQTPVTEYDLYSHTSIWLLRTDFVLDYPKPVMPNMIFIGGINCHQGKPLPMEFEAYINASGEHGIVVFSLGSMVSEIPEKKAMAIADALGKIPQTVLWRYTGTRPSNLANNTILVKWLPQNDLLGHPMTRAFITHAGSHGVYESICNGVPMVMMPLFGDQMDNAKRMETKGAGVTLNVLEMTSEDLENALKAVINDKSYKENIMRLSSLHKDRPVEPLDLAVFWVEFVMRHKGAPHLRPAAHDLTWYQYHSLDVIGFLLAVVLTVAFITFKCCAYGYRKCLGKKGRVKKAHKSKTH
B5: XCL1 mature protein V21C/V59C/S6A (UniProt P47992); chain VGSEVADKRTCVSLTTQRLPCSRIKTYTITEGSLRAVIFITKRGLKVCADPQATWVRDCVRSMDRKSNTRNNMIQTKPTGTQQSTNTAVTLTG
B6: ADA D8N (Homo sapiens, UniProt P00813); chain MAQTPAFNKPKVELHVHLDGSIKPETILYYGRRRGIALPANTAEGLLNVIGMDKPLTLPDFLAKFDYYMPAIAGCREAIKRIAYEFVEMKAKEGVVYVEVRYSPHLLANSKVEPIPWNQAEGDLTPDEVVALVGQGLQEGERDFGVKARSILCCMRHQPNWSPKVVELCKKYQQQTVVAIDLAGDETIPGSSLLPGHVQAYQEAVKSGIHRTVHAGEVGSAEVVKEAVDILKTERLGHGYHTLEDQALYNRLRQENMHFEICPWSSYLTGAWKPDTEHAVIRLKNDQANYSLNTDDPLIFKSTLDTDYQMTKRDMGFTEEEFKRLNINAAKSSFLPEDEKRELLDLLYKAYGMPPSASAGQNL
Sequence of UniProt P02769 (whole entry, looked up): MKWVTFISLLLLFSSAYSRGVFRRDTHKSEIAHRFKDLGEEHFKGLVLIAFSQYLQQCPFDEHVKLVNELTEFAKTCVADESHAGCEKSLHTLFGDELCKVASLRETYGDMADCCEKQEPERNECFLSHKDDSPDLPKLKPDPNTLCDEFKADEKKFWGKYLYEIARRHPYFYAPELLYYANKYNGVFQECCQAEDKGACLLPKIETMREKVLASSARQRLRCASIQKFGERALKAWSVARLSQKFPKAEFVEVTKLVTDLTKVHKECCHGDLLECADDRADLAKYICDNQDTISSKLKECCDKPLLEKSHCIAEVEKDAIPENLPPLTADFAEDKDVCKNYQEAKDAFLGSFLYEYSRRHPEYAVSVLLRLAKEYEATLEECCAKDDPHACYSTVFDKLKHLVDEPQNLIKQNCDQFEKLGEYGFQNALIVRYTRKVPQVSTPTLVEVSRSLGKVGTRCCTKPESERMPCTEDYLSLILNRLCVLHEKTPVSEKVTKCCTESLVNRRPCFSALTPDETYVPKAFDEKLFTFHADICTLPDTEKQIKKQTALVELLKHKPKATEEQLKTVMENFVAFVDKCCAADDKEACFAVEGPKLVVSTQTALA
Sequence of UniProt Q9NPB9 (whole entry, looked up): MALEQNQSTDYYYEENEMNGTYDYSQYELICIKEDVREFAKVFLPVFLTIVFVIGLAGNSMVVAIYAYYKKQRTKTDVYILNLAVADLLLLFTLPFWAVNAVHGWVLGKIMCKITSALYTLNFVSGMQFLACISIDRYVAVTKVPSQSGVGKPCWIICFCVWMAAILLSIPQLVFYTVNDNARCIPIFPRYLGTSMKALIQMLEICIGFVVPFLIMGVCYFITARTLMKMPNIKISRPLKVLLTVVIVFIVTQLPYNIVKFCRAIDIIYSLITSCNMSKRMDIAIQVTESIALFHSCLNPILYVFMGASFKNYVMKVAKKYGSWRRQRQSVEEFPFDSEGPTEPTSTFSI
Sequence of UniProt P46094 (whole entry, looked up): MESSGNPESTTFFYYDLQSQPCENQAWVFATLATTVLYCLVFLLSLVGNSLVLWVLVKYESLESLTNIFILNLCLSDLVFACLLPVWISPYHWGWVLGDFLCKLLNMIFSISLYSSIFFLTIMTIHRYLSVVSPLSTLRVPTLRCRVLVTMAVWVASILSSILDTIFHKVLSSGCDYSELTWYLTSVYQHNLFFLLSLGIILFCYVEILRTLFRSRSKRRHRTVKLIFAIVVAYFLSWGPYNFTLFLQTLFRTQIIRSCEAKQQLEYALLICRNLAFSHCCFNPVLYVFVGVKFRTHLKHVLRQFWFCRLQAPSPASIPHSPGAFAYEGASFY
Sequence of UniProt P13596 (whole entry, looked up): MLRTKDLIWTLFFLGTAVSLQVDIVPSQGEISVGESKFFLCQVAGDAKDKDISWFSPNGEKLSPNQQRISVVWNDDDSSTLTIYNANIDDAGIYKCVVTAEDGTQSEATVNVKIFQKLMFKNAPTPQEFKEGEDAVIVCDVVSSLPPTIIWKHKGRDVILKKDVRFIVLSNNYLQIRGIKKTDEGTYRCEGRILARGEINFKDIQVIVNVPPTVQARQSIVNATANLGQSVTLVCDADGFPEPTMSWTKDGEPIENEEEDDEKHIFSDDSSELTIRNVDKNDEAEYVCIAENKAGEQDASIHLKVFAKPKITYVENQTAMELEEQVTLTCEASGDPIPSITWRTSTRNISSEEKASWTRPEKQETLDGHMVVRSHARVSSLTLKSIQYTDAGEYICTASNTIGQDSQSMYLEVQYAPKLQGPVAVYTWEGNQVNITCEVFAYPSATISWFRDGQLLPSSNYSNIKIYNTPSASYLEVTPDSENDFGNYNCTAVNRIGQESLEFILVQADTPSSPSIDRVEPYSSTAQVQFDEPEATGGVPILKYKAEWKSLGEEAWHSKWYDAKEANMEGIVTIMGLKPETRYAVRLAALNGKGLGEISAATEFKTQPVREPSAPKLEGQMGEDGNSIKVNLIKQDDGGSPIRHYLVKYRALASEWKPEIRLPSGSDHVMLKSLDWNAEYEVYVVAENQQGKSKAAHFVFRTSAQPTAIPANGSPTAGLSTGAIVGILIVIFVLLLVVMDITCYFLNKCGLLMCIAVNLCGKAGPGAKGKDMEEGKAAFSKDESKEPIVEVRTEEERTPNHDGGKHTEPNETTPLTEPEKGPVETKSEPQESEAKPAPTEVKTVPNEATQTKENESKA
Sequence of UniProt P38405 (whole entry, looked up): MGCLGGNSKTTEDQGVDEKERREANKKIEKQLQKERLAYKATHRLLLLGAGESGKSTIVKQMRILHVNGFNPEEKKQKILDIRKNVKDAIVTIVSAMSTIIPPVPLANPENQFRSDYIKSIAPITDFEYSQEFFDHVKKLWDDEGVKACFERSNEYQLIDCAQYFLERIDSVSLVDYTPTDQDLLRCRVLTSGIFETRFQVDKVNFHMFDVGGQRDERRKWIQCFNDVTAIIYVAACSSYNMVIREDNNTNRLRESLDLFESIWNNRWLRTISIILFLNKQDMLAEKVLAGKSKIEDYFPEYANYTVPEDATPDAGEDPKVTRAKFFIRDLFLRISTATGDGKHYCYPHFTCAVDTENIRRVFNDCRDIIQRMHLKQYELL
Sequence of UniProt P45983 (whole entry, looked up): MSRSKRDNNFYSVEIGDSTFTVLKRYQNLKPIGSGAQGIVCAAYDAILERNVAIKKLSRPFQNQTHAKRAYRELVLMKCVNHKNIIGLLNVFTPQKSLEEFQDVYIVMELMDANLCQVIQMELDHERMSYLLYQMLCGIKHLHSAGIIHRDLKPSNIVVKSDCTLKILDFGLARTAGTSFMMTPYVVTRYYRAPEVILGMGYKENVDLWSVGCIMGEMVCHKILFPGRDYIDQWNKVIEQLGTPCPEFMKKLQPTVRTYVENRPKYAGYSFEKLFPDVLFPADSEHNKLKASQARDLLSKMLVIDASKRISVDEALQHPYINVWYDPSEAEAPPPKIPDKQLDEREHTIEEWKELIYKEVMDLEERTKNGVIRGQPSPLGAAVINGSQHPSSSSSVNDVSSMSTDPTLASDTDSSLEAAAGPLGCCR
Sequence of UniProt P29375 (whole entry, looked up): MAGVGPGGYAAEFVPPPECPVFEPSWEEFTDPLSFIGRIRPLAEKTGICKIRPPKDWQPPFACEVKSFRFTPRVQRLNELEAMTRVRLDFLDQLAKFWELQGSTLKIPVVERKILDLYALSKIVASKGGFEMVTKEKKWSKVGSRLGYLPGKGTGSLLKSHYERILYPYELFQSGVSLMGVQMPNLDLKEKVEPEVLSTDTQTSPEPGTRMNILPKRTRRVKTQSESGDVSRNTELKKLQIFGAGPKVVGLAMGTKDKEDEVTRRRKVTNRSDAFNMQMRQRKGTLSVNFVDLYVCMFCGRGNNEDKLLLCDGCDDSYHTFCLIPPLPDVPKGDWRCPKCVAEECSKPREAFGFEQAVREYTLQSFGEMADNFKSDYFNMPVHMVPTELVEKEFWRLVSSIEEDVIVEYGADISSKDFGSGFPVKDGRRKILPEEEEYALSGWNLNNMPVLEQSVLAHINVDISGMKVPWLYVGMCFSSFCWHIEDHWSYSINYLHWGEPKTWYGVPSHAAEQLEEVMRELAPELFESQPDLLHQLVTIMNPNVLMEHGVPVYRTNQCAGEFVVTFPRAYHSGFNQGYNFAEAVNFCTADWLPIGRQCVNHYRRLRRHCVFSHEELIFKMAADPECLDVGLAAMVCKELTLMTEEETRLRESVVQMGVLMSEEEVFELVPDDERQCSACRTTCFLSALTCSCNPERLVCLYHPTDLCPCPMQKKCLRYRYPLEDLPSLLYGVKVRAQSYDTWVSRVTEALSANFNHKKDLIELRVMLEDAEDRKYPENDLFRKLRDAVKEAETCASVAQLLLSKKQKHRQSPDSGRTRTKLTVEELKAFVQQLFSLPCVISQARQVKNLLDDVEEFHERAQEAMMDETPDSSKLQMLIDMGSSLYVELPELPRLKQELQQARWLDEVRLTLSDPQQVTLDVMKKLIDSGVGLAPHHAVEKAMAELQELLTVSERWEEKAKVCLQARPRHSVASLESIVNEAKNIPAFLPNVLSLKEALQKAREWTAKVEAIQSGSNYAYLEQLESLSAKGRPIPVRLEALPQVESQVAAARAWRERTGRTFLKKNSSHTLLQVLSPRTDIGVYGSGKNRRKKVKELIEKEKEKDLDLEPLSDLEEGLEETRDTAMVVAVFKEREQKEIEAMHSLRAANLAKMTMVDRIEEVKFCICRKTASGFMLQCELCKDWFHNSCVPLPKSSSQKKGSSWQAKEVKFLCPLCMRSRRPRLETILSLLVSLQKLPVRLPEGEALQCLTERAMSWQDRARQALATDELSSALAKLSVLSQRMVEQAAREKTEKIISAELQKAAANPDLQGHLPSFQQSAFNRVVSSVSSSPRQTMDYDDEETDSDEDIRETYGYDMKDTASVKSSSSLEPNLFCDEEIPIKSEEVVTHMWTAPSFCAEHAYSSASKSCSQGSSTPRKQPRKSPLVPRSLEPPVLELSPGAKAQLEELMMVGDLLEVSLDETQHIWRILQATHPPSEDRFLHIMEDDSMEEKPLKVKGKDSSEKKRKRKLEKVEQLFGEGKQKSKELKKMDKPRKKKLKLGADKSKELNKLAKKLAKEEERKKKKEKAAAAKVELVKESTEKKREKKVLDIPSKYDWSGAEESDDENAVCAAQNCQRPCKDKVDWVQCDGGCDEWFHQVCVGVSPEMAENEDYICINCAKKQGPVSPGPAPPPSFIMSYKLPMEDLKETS
Sequence of UniProt Q99731 (whole entry, looked up): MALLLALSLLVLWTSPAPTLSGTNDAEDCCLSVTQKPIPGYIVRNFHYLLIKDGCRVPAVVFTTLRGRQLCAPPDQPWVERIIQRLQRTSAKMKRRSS
Sequence of UniProt P0A9E2 (whole entry, unmodified, looked up): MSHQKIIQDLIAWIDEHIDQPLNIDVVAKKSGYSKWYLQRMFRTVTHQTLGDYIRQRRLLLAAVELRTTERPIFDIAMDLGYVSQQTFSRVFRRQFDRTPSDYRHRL

With `PPP1CB (Homo sapiens, UniProt P62140)` the koff was 0.0075 s⁻¹ (SHOC2 (Homo sapiens, UniProt Q9UQ13); BLI; pH 7.5, 30 °C).
With `B1 (EnvC 278-419 Y350A)` the AmiB activation was 22.3% (AmiB (Escherichia coli); dye release from labelled sacculi, activator; 1 µM; baseline: wild-type, higher = more activation).
`B2 (Ric8b 1-483 E400A)` has a sensor folding of 32% (GNAL 1-381 (Homo sapiens, UniProt P38405); luminescence; RIC-8B knockout HEK293T; baseline: wild-type Ric-8B, higher = more folding).
For `B3 (rpoD 530-613)`, “reporter induction ratio” read 14 (soxS F74A/D75A/M78A/D79A/Q85A (Escherichia coli, UniProt P0A9E2); β-galactosidase, two-hybrid; yeast; baseline: non-inducing glucose medium, higher = more interaction).
`Sptb (Chinese hamster, UniProt A0A9J7GYU9)` has a relative coprecipitation of 74 ± 7.32% (Ncam1 (Rattus norvegicus, UniProt P13596); co-IP; CHO; together with: methyl-β-cyclodextrin; baseline: untreated control, higher = more spectrin bound).
The Ki of `ARSKQTARKS (Histone H3.1 2-11 T3S (Homo sapiens, UniProt P68431); sequence looked up)` is reported as 18.8 µM (KDM5A 287-347 (Homo sapiens, UniProt P29375); competition with labeled peptide, fluorescence polarisation; peptide; together with: H3 peptide).
With `B4 (UGT1A9)` the Vmax/Km was 45000 µL/min/mg (COc1cc(O)c2c(=O)c(O)c(-c3ccc(O)c(O)c3)oc2c1; steady-state kinetics; pH 7.4, 37 °C).
Under “methylation activity reduction”, `Dnmt3l fragment F297D (Mus musculus)` is recorded as 75% (Dnmt3a fragment (Mus musculus); DNA methylation activity; baseline: wild-type complex, higher = greater loss of activity).
The potency decrease of `B5` is reported as 2.1 fold (XCR1 (Homo sapiens, UniProt P46094); calcium flux; HEK293; baseline: XCL1 CC3, higher = less potent).
For `YAEKHRRAKLRLYLEQ (MXD4 D-site peptide (Homo sapiens))`, the IC50 was 1.1 µM (MAPK8, pT183, pY185 (Homo sapiens, UniProt P45983); kinase activity, inhibitor, competitive kinase inhibition assay; peptide; together with: ATP 1 mM).
`B6 (ADA D8N)` — result for “relative enzyme activity”: 1.36 fold (bovine serum albumin (Bos taurus, UniProt P02769); adenosine deamination; pH 7.4; baseline: PBS pH 7.4, higher = more activity).
The pEC50 of `CCL19 (UniProt Q99731)` is reported as 8.6 (ACKR4 (Homo sapiens, UniProt Q9NPB9); β-arrestin2 recruitment, agonist, EFC; CHO-CCX-CKR; vehicle).

Excerpt of the above:
The Ki of `ARSKQTARKS (Histone H3.1 2-11 T3S (Homo sapiens, UniProt P68431); sequence looked up)` is reported as 18.8 µM (KDM5A 287-347 (Homo sapiens, UniProt P29375); competition with labeled peptide, fluorescence polarisation; peptide; together with: H3 peptide).
